Measurements gathered from unrelated publications.
Each numbered part is a random draw from the data of one study; scales do not carry over between parts.

Set 1 — technique: protein binding microarray; molecule type: double-stranded DNA, one strand shown; medium: in vitro; concentration: not given; reference: not given; reading: higher = stronger binding
Target: Histone acetyltransferase KAT6A, winged helix 2, GST fusion (KAT6A, Homo sapiens, UniProt Q92794, residues 85-181)
Setting: 8-mer, flanks averaged, mean of 2 arrays, mostly near background
Target sequence (chain): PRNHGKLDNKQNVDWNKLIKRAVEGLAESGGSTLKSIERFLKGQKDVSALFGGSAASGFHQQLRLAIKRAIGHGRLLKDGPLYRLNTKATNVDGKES
Sequence | E-score
AAGGGTGG | -0.179
CAGTTCGA | -0.0239
GCTTCGAC | -0.0588
TGTCCCAA | -0.0338
ACTCAGTG | 0.0473

Set 2 — technique: Sort-seq; item: YFP reporter; medium: E. coli; setting: PhoQ-PhoP variant library; added: 10 µM Mg2+; reference: high Mg2+ state; reading: higher = stronger signaling
Substance: PhoQ, residues 284 288 289 292 302 303 NLALSC
target | fold induction
PhoP, residues 12 14 15 18 19 SHWTV (Escherichia coli, UniProt P23836) | 0.719
PhoP, residues 12 14 15 18 19 STHWV (Escherichia coli, UniProt P23836) | 1.28
PhoP, residues 12 14 15 18 19 QYCSL (Escherichia coli, UniProt P23836) | 1.68

Set 3 — technique: universal PBM; molecule type: double-stranded DNA, one strand shown; medium: in vitro; concentration: 600 nM; reading: higher = stronger binding
Target: Sal-like protein 4, full length isoform A (SALL4, Homo sapiens, UniProt Q9UJQ4, residues 1-1053)
UniProt Q9UJQ4, sequence (whole entry, looked up): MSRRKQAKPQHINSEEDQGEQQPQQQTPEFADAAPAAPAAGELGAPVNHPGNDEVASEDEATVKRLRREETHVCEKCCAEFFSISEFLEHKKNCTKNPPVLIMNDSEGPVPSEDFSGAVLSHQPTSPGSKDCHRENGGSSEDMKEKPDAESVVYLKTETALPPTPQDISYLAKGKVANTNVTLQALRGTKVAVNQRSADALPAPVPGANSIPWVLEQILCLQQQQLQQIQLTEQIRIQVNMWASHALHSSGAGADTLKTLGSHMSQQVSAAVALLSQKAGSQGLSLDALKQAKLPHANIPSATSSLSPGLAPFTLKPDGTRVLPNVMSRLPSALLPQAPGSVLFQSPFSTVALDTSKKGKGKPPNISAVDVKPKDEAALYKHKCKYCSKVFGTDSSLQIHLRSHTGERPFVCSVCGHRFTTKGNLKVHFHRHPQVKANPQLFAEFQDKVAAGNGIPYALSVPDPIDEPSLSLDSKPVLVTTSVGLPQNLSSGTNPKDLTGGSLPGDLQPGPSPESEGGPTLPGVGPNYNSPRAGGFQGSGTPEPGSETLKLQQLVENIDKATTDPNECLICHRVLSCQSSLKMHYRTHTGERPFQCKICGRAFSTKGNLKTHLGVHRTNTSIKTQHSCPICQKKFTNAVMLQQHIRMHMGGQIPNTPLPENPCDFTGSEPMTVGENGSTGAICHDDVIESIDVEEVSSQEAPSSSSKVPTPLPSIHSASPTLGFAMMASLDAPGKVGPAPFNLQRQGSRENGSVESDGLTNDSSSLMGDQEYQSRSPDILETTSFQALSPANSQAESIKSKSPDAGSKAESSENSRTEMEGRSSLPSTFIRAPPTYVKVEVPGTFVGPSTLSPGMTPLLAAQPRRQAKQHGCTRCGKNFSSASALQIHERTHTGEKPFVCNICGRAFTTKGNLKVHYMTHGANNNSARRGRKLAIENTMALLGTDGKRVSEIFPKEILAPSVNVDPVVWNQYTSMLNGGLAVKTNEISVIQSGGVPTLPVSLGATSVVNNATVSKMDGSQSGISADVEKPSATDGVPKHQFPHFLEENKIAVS
Setting: 8-mer, flanks averaged, mean of replicates
Sequence | E-score
ATTTCTCA | 0.154
ATACTCGG | 0.0598
ATGAGCTA | 0.144
AGTATCGA | 0.193
AACTACGC | 0.0172
CACATTTA | 0.295

Set 4 — technique: protein-binding microarray; molecule type: double-stranded DNA, one strand shown; medium: in vitro; concentration: 2540 nM top; setting: 60-bp whole probe; added: salmon DNA 0.4 mg/ml; reference: random background probes; reading: higher = stronger binding; all sequences stand within: GCCTAGCAC … GTCTTGATTCGCTTGACGCTGCTG
Target: Interferon regulatory factor 3, full length, phosphomimetic (IRF3, Homo sapiens, UniProt Q14653, residues 1-427, S386D/S396D/S398D/S402D/T404D/S405D)
Target sequence (chain): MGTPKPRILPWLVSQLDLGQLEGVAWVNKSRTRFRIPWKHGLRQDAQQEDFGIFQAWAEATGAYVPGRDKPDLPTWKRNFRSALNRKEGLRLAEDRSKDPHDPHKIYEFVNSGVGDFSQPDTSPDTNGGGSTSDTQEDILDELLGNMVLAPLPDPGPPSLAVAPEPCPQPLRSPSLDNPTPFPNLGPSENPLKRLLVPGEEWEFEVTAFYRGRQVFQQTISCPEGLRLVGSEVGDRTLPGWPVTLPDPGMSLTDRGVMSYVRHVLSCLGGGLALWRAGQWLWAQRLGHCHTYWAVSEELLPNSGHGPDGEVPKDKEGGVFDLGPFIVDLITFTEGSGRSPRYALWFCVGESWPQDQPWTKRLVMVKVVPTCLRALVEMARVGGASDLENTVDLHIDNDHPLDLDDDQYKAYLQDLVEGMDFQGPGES
Sequence | fitted relative affinity [z-score]
TCGTTTCCCAAGTTTATACCTGTGCTA | 3.75
TCATATATATGTGTATAACTGTGCTAG | 0.625
TTAGGACTGGGTATCGGTTTGTGCTAG | 1.57
TTAGGTATCGCCACTGGGTTAGTGCTA | -0.252
TCAAGTTTATACCTTAGACTGTGCTAG | -0.264
GACGATTTTGGGACTGGAGACGTGCTA | 0.172

Some of these lines once more (set 2):
target | fold induction
PhoP, residues 12 14 15 18 19 SHWTV (Escherichia coli, UniProt P23836) | 0.719
PhoP, residues 12 14 15 18 19 QYCSL (Escherichia coli, UniProt P23836) | 1.68
PhoP, residues 12 14 15 18 19 STHWV (Escherichia coli, UniProt P23836) | 1.28
